# Measurements from different studies.
# Protocols differ between the studies behind these lines. ± gives the spread as reported.
# Sequence of UniProt O75469 (whole entry, looked up): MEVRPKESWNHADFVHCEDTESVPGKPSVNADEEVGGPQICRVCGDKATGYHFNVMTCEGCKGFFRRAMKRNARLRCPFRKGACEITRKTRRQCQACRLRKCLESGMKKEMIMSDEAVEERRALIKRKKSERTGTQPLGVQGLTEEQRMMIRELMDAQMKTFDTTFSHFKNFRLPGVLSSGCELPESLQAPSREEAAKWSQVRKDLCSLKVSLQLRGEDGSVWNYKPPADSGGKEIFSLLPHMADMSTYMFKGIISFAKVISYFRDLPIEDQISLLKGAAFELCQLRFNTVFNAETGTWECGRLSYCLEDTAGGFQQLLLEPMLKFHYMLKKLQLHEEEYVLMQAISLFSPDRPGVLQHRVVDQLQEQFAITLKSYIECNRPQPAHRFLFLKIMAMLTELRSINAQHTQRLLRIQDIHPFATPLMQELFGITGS
# Sequence of UniProt Q7TMS5 (whole entry, looked up): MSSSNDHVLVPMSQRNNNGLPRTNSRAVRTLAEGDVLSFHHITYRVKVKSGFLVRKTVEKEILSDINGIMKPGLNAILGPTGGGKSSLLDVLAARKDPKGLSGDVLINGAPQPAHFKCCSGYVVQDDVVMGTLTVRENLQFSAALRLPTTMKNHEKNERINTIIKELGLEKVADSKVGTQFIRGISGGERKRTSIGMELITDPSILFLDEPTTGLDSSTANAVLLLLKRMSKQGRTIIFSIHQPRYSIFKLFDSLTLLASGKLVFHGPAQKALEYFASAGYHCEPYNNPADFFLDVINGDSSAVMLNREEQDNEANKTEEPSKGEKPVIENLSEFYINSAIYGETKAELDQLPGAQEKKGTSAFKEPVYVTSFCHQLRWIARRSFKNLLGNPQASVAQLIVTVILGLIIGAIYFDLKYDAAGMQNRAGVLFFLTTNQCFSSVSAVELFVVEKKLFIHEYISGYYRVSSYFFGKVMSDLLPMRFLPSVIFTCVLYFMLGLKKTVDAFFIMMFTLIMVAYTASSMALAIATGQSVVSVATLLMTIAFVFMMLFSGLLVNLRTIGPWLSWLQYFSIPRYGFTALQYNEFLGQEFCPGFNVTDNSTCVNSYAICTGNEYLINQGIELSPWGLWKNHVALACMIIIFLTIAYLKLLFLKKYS
# Sequence of UniProt P11509 (whole entry, looked up): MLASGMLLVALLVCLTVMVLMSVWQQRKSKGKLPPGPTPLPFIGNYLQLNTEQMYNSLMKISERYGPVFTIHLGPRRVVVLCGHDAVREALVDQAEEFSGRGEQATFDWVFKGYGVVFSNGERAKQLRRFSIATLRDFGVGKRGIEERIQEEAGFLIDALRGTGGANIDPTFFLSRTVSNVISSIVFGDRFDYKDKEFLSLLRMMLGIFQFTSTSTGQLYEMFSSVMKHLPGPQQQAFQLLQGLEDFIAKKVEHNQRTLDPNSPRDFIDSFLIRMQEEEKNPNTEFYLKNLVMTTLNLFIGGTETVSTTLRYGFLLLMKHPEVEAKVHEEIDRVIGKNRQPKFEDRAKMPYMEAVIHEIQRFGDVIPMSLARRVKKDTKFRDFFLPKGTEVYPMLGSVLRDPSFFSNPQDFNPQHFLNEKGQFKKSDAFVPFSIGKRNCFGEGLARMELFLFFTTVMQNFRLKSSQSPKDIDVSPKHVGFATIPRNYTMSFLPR
# Sequence of UniProt Q00195 (whole entry, unmodified, looked up): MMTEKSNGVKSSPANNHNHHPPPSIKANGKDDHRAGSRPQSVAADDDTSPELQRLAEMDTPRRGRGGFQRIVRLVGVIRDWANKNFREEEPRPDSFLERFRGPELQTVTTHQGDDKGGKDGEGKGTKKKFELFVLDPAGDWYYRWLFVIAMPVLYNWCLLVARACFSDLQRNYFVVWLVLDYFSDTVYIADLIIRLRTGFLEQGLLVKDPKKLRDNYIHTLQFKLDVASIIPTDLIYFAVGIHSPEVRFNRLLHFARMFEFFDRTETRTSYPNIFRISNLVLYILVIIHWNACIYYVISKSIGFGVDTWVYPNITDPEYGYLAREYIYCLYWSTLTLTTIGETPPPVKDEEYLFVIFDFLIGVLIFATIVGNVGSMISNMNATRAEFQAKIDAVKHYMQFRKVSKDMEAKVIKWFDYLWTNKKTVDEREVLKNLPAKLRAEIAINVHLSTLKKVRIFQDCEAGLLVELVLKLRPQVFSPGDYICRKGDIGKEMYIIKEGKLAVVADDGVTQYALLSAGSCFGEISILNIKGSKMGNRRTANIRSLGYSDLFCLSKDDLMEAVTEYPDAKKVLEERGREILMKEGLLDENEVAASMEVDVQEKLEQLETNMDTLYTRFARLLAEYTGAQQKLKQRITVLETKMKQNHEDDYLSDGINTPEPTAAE
Substance,target or system,test,system,setting,scale,quantity,value
O=C(/C=C/C=C/c1ccc2c(c1)OCO2)N1CCCCC1,"NR1I2 (Homo sapiens, UniProt O75469)","reporter gene, agonist, item: CYP3A4 promoter luciferase",HepG2 without PXR transfection,24 h,,EC50,780 nM
CC(=NNC(=S)NN=C(C(=NO)c1ccccc1)c1ccccc1)c1ccccc1C,MCF7,"Western blot, item: Bcl-2",,"IC50 concentration, 24 h",reference: untreated,relative protein level,0.61 ± 0.06
MRYGW,cytochrome P450 Blt (Micromonospora sp. MW-13),"substrate, LC-MS",peptide,"overnight, 30 °C, P450 0.5 µM, together with: NADH 2 mM",,conversion to cyclic peptide,19%
Cc1coc2c1CC[C@@H](C)C2,"Cytochrome P450 2A6 (CYP2A6, Homo sapiens, UniProt P11509)",inactivator,,"5 µM, 0 min, pH 7.4, 30 °C, together with: NADPH",reference: without NADPH,remaining activity,107 ± 9%
O=c1ccc2ccccc2o1,CYP2A6 human,"7-hydroxylation, substrate",human liver microsomes,"CYP2A6 added 216 pmol/mg, ratio 0.5",,Hill coefficient,1.16 ± 0.28
COc1cc(C=O)ccc1O,UGT (rat),"p-NP glucuronidation, inhibitor",rat liver microsomes,,,lowest inhibitory concentration,≥ 0.01 µM
O=C1NC(=O)C(c2ccccc2)(c2ccccc2)N1,MCT5 (rat),"substrate, Xenopus oocytes",,"9.09 µM, 20 °C",reference: water-injected oocytes,uptake,no effect
CC(C)[C@H](NC(=O)[C@@H]1CCCN1C(=O)[C@H](CCCNC(=N)N)NC(=O)[C@H](CS)NC(=O)[C@H](Cc1c[nH]c2ccccc12)NC(=O)[C@H](CCCNC(=N)N)NC(=O)[C@@H](Cc1ccccc1)NC(=O)[C@H](Cc1c[nH]cn1)NC(=O)[C@H](CCC(=O)O)NC(=O)[C@H](CS)NC(=O)[C@H](CS)NC(=O)[C@H](CCCCN)NC(=O)[C@@H]1CC(=O)N[C@@H](CCCNC(=N)N)C(=O)N[C@@H](C)C(=O)N[C@@H](CC(=O)O)C(=O)N[C@H](Cc2ccc(O)cc2)C(=O)N1)C(N)=O [technetium-99m labelled],,,"C57 mice, lung","intravenous, 0.037 MBq, 0.5 h",,tissue uptake,3.91 ± 1.37 %ID/g
CCOC(=O)c1c(N)csc1-c1cn(-c2ccccc2)nc1-c1ccc(C)cc1,Acinetobacter baumannii,"microbial growth, broth dilution",,,,MIC,0.24 µg/mL
EPEPRLWVVPGALPQV,GPR15 human,"intracellular calcium, agonist, Fluo-4 fluorescence","peptide, CHO transfected with GPR15",,,concentration for maximal response,10 nM
Nc1nc2c(ncn2[C@@H]2O[C@@H]3COP(=O)(O)O[C@H]3[C@H]2O)c(=O)[nH]1,"Cnga2 (Rattus norvegicus, UniProt Q00195, C460W/E583M)","ion current, agonist, inside-out patch clamp",,"C460W/E583M channel, -50 mV",reference: cAMP at saturation,relative maximal current,0.5 ± 0.1
Cc1ccc(Nc2nccc(N(C)c3ccc4c(C)n(C)nc4c3)n2)cc1S(N)(=O)=O,"Broad substrate specificity ATP-binding cassette transporter ABCG2 (Mus musculus, UniProt Q7TMS5)",bidirectional transport,MDCK-Bcrp1 (murine Bcrp1),"5 µM, 240 min, together with: canertinib",,efflux ratio,2.3
OC[C@H]1O[C@@H](Oc2cc3c(O)cc(O)cc3[o+]c2-c2ccc(O)c(O)c2)[C@H](O[C@@H]2OC[C@@H](O)[C@H](O)[C@H]2O)[C@@H](O)[C@@H]1O,"NAD(P)H quinone oxidoreductase, mouse","enzyme induction, inducer",Hepa-1c1c7,concentration doubling activity,,CD value,> 20 µM
CC(C)(C)C(=O)Nc1ccc2nc(CN3CCC(N(CC(=O)N4CCC(O)CC4)C[C@H]4O[C@@H](n5cnc6c(N)ncnc65)[C@H](O)[C@@H]4O)CC3)[nH]c2c1,human DOT1L R231Q,"inhibitor, western blot, item: H3K79me2 over histone H3",H460 DOT1L R231Q,concentration not given,reference: cpd over SGC0946,H3K79me2 level ratio,0.747
Cc1ccc(Cn2cnc3ccc(/C=C/C(=O)NO)cc3c2=O)cc1,histone deacetylase,"enzyme activity, inhibitor",HeLa nuclear extract,,,IC50,360 ± 51 nM
CC1CCN(C(=O)CN(C[C@H]2O[C@@H](n3cnc4c(N)ncnc43)[C@H](O)[C@@H]2O)C2CCN(Cc3nc4ccc(NC(=O)C(C)(C)C)cc4[nH]3)CC2)CC1,human DOT1L R231Q,"inhibitor, western blot, item: H3K79me2 over histone H3",H460 DOT1L R231Q,concentration not given,reference: cpd over SGC0946,H3K79me2 level ratio,1.33
Cn1c(=O)oc2ccc(-c3ccc(C[C@@H](C#N)NC(=O)[C@@H]4CNCCCO4)cc3)cc21,neutrophil elastase,"enzyme activity, inhibitor","human, whole blood","oral, 40 mg once daily, together with: zymosan",,steady-state inhibition,59%
CCN1CCN(C(=O)CN(C[C@H]2O[C@@H](n3cnc4c(N)ncnc43)[C@H](O)[C@@H]2O)C2CCN(Cc3nc4ccc(NC(=O)C(C)(C)C)cc4[nH]3)CC2)CC1,human DOT1L R231Q,"inhibitor, western blot, item: H3K79me2 over histone H3",H460 DOT1L R231Q,concentration not given,reference: cpd over SGC0946,H3K79me2 level ratio,0.937
O=C(O)C1=CC=CC(O)C1O (stereo not drawn),rhodopsin wild type-Rluc fusion,reporter gene,HEK293,24 h,,EC50,1500 nM
CC(C)(C)C(=O)Nc1ccc(NC(=O)N2CC3CC(N(CC(=O)NC4CC4)C[C@H]4O[C@@H](n5cnc6c(N)ncnc65)[C@H](O)[C@@H]4O)CC3C2)cc1 (stereo partly drawn),human DOT1L R231Q,"inhibitor, western blot, item: H3K79me2 over histone H3",H460 DOT1L R231Q,concentration not given,reference: cpd over SGC0946,H3K79me2 level ratio,1.22
CC[C@H](C)[C@H](NC(=O)[C@H](CCC(=O)O)NC(=O)[C@H](CO)NC(=O)[C@@H](NC(=O)[C@@H](N)CO)C(C)C)C(=O)N[C@@H](CCC(N)=O)C(=O)N[C@@H](CC(C)C)C(=O)N[C@@H](CCSC)C(=O)N[C@@H](Cc1cnc[nH]1)C(=O)N[C@@H](CC(N)=O)C(=O)N[C@@H](CC(C)C)C(=O)NCC(=O)N[C@@H](CCCCN)C(=O)N[C@@H](Cc1cnc[nH]1)C(=O)N[C@@H](CC(C)C)C(=O)N[C@@H](CC(N)=O)C(=O)N[C@@H](CO)C(=O)N[C@@H](CCSC)C(=O)N[C@@H](CCC(=O)O)C(=O)N[C@@H](CCCN=C(N)N)C(=O)N[C@H](C(=O)N[C@@H](CCC(=O)O)C(=O)N[C@@H](Cc1c[nH]c2ccccc12)C(=O)N[C@@H](CC(C)C)C(=O)N[C@@H](CCCN=C(N)N)C(=O)N[C@@H](CCCCN)C(=O)N[C@@H](CCCCN)C(=O)N[C@@H](CC(C)C)C(=O)N[C@@H](CCC(N)=O)C(=O)N[C@@H](CC(=O)O)C(=O)N[C@H](C(=O)N[C@@H](Cc1cnc[nH]1)C(=O)N[C@@H](CC(N)=O)C(=O)N[C@@H](Cc1ccccc1)C(=O)O)C(C)C)C(C)C,"Chymotrypsinogen A, activated (chymotrypsin) (Bos taurus, UniProt P00766)","substrate, HPLC-UV",,"60 min, pH 6.5, 37 °C, without trypsin inhibitor",,remaining intact compound,0%
C[C@H](NC(=O)[C@H](CC(N)=O)NC(=O)[C@H](Cc1ccc(O)cc1)NC(=O)[C@H](CCC(=O)O)NC(=O)[C@H](CS)NC(=O)[C@H](CC(=O)O)NC(=O)[C@H](C)N1C/C=C/CCC(=O)N[C@@H]([C@@H](C)O)C(=O)N[C@@H](C)C1=O)C(N)=O,HIF-1α,"VEGF transcription, qRT-PCR, item: VEGF mRNA",HeLa,"1 µM, 12 h, together with: deferoxamine-mimicked hypoxia",,inhibition,0 ± 3%
O=C(NO)c1ccc(NC(=O)[C@@H](NC(=O)c2ccc3ccccc3c2)c2ccccc2)cc1,HDAC (HeLa nuclear extract),"enzyme activity, inhibitor",,,,IC50,14.3 ± 0.9 nM
COC(=O)c1cc(O)c(O)c(O)c1,"NAD(P)H quinone oxidoreductase, mouse","enzyme induction, inducer",Hepa-1c1c7,concentration doubling activity,,CD value,14.1 ± 2.3 µM
CC(C)(N)C(=O)O,"system A amino acid transporter, mouse","Na+-dependent uptake, substrate",Ehrlich ascites cells,"1 min, pH 7.4, together with: 107 mEq/L Na+",,Km,2000 µM
Cc1ncsc1-c1ccc(CNC(=O)[C@@H]2C[C@@H](O)CN2C(=O)[C@@H](NC(=O)CCCNC(=O)c2ccc(-c3cnc(NCc4ccco4)n4cnnc34)cc2)C(C)(C)C)cc1,"EZH2, human","degrader, western blot",HeLa,24 h,,DC50,300 ± 190 nM
Nc1ncnc2c1ncn2CCOCP(=O)(O)O,herpes simplex virus 2,cytopathic effect,"HEL, clinical isolate NA",,,EC50,3.4 ± 1.2 µg/mL

# Repeated from above:
Substance,target or system,test,system,setting,scale,quantity,value
CC(C)(N)C(=O)O,"system A amino acid transporter, mouse","Na+-dependent uptake, substrate",Ehrlich ascites cells,"1 min, pH 7.4, together with: 107 mEq/L Na+",,Km,2000 µM
CC(C)(C)C(=O)Nc1ccc2nc(CN3CCC(N(CC(=O)N4CCC(O)CC4)C[C@H]4O[C@@H](n5cnc6c(N)ncnc65)[C@H](O)[C@@H]4O)CC3)[nH]c2c1,human DOT1L R231Q,"inhibitor, western blot, item: H3K79me2 over histone H3",H460 DOT1L R231Q,concentration not given,reference: cpd over SGC0946,H3K79me2 level ratio,0.747
O=c1ccc2ccccc2o1,CYP2A6 human,"7-hydroxylation, substrate",human liver microsomes,"CYP2A6 added 216 pmol/mg, ratio 0.5",,Hill coefficient,1.16 ± 0.28
Cn1c(=O)oc2ccc(-c3ccc(C[C@@H](C#N)NC(=O)[C@@H]4CNCCCO4)cc3)cc21,neutrophil elastase,"enzyme activity, inhibitor","human, whole blood","oral, 40 mg once daily, together with: zymosan",,steady-state inhibition,59%
